{"data": "Results pooled from the literature", "SCTR": "Secretin receptor (SCTR, Homo sapiens, UniProt P47872)", "POLB": "DNA polymerase beta (POLB, Homo sapiens, UniProt P06746)", "T1": "ssRNA FMR1 5' UTR CGG repeat (Homo sapiens); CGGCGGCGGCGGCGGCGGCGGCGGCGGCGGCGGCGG", "note": "Compare with care: the assays were run in different laboratories. Several values in a cell are separate wells, animals, samples, runs or records. Numbers after ± are the reported error."}
{"Compound": "N#Cc1cccc(-c2ccc(=O)n(Cc3cccc(-c4ncc(OCC5CCN(CC(=O)N6CCN(CCNc7ccc8c(c7)C(=O)N(C7CCC(=O)NC7=O)C8=O)CC6)CC5)cn4)c3)n2)c1 (stereo not shown)", "target": "Hepatocyte growth factor receptor (MET, Homo sapiens, UniProt P08581)", "test": "degrader", "test system": "EBC-1", "endpoint": "Dmax", "value": "99%"}
{"Compound": "O=C(CSc1nc(-c2ccccc2)cc(C(F)(F)F)n1)Nc1ccccc1", "target": "SCTR", "test": "increase of tracer binding, TR-FRET", "test system": "HEK293 membranes", "conditions": "with: Fluo-Sec 6 nM", "endpoint": "Emax", "value": "116 ± 7.4%"}
{"Compound": "N#Cc1cc(C(=O)OCC[18F])c(C(F)(F)F)nc1N1CCN(C(=O)Cc2ccccc2)CC1", "target": "P2Y purinoceptor 12 (P2ry12, Mus musculus, UniProt Q9CPV9)", "test": "PET", "test system": "mouse, chronic kainate epilepsy, brain", "endpoint": "target to normal ratio", "value": "1.12 ± 0.03"}
{"Compound": "COc1ccc(-c2cc(C(F)(F)F)nc(NCc3cccnc3)n2)cc1OC", "target": "SCTR", "test": "cAMP, agonist", "endpoint": "Emax", "value": "27%"}
{"Compound": "CN1CCN(c2ccc3[nH]c(-c4ccc5[nH]c(-c6cccc(OCCCC(=O)NCCCN=[N+]=[N-])c6)nc5c4)nc3c2)CC1", "target": "T1, ssRNA FMR1 5' UTR CGG repeat (Homo sapiens)", "test": "protein displacement, competitor, TR-FRET", "endpoint": "IC50", "value": "33 µM"}
{"Compound": "COc1ccc(-c2cc(C(F)(F)F)nc(SCCC(=O)Nc3cc(F)ccc3F)n2)cc1", "target": "SCTR", "test": "cAMP accumulation, positive allosteric modulator", "test system": "CHO-K1 overexpressing SCTR", "conditions": "with: EC10-EC20 secretin peptide mix", "scale": "relative to: EC95 peptide mix", "endpoint": "Emax", "value": "26% and ~30%"}
{"Compound": "COc1ccc(-c2cc(C(F)(F)F)nc(S(=O)(=O)NCC(=O)Nc3ccc(C)cc3)n2)cc1", "target": "Bifunctional 3'-5' exonuclease/ATP-dependent helicase WRN (WRN, Homo sapiens, UniProt Q14191)", "test": "enzyme activity, inhibitor", "endpoint": "kinact", "value": "0.00035 s⁻¹"}
{"Compound": "CC(C)(C)CCN1C[C@@H]2[C@@H](CNC(=O)c3cc(Cl)cc(Cl)c3)[C@@H]2C1.Cl", "target": "Voltage-dependent L-type calcium channel subunit alpha-1F, exon 47 deletion isoform (Homo sapiens, UniProt O60840)", "test": "calcium current, whole-cell patch clamp", "test system": "HEK-293T cells", "conditions": "50 nM", "endpoint": "reversal potential", "value": "75.9 ± 7.91 mV"}
{"Compound": "NS(=O)(=O)c1ccc(NC(=O)c2ccccc2SSc2ccccc2C(=O)Nc2ccc(S(N)(=O)=O)cc2)cc1", "target": "Gag-Pol polyprotein, integrase core 50-213 (gag-pol, Human immunodeficiency virus type 1 group M subtype B, UniProt P04585)", "test": "DNA binding, fluorescence anisotropy", "test system": "integrase CC", "conditions": "compound:IN ratio 3:1, with: 10 mM Mn2+, U5 DNA", "endpoint": "Hill coefficient", "value": "1.2 ± 0.05"}
{"Compound": "N=C(N)NC(=N)Nc1cccc(Cl)c1", "target": "Serotonin 3 (5-HT3) receptor (Homo sapiens, UniProt O95264+P46098)", "test": "ion current, two-electrode voltage clamp", "test system": "Xenopus oocytes", "scale": "relative to: 5-HT", "endpoint": "relative maximal response", "value": 2.6}
{"Compound": "CC(=O)N[C@@H](Cc1c[nH]c2ccccc12)C(=O)N[C@@H](Cc1c[nH]c2ccccc12)C(=O)N[C@@H](Cc1c[nH]c2ccccc12)C(=O)N[C@@H](Cc1c[nH]c2ccccc12)C(=O)N[C@@H](Cc1c[nH]c2ccccc12)C(=O)N[C@@H](Cc1c[nH]c2ccccc12)C(=O)NCCCC[C@@H]1NC(=O)[C@H](CCCNC(=N)N)NC(=O)[C@H](CCCNC(=N)N)NC(=O)[C@H](CCCNC(=N)N)NC(=O)[C@H](CCCNC(=N)N)NC(=O)[C@H](CCCNC(=N)N)NC(=O)[C@H](CCCNC(=N)N)NC1=O", "target": "Cyclin-dependent kinase 2, with cyclin A1 (CDK2, Homo sapiens, UniProt P24941)", "test": "kinase activity, Reaction Biology radiometric", "conditions": "concentration not given, with: ATP 200 µM", "scale": "relative to: DMSO", "endpoint": "remaining activity", "value": "5.9%"}
{"Compound": "CC(C)Cn1c(SCC(=O)N2CCc3ccccc3C2)nc2cc(Cl)ccc2c1=O", "target": "Corticotropin-releasing factor receptor 2 (CRHR2, Homo sapiens, UniProt Q13324)", "test": "calcium signal, antagonist", "conditions": "without CRF-binding protein, with: CRF at EC80", "endpoint": "IC50", "value": "inactive"}
{"Compound": "Nc1nc2c(ncn2[C@H]2C[C@H](O)[C@@H](COP(=O)(O)OP(=O)(O)C(Cl)(Cl)P(=O)(O)O)O2)c(=O)[nH]1", "target": "POLB", "test": "nucleotide incorporation rate, substrate, single-turnover kinetics", "test system": "single-nucleotide gapped DNA", "conditions": "37 °C, wild type, misincorporation, with: dGTP opposite template A", "endpoint": "kpol", "value": "0.0006 ± 0.0001 s⁻¹"}
{"Compound": "CC(=O)N[C@@H]1[C@@H](O[C@@H]2O[C@H](C(=O)O)[C@@H](O[C@@H]3O[C@H](COS(=O)(=O)O)[C@@H](OS(=O)(=O)O)[C@H](O[C@@H]4O[C@H](C(=O)O)[C@@H](OS(=O)(=O)O)[C@H](OS(=O)(=O)O)[C@H]4OS(=O)(=O)O)[C@H]3NC(C)=O)[C@H](OS(=O)(=O)O)[C@H]2OS(=O)(=O)O)[C@H](OS(=O)(=O)O)[C@@H](COS(=O)(=O)O)O[C@H]1SCCOCCOCCSSCCOCCOCCS[C@@H]1O[C@H](COS(=O)(=O)O)[C@@H](OS(=O)(=O)O)[C@H](O[C@@H]2O[C@H](C(=O)O)[C@@H](O[C@@H]3O[C@H](COS(=O)(=O)O)[C@@H](OS(=O)(=O)O)[C@H](O[C@@H]4O[C@H](C(=O)O)[C@@H](OS(=O)(=O)O)[C@H](OS(=O)(=O)O)[C@H]4OS(=O)(=O)O)[C@H]3NC(C)=O)[C@H](OS(=O)(=O)O)[C@H]2OS(=O)(=O)O)[C@H]1NC(C)=O", "target": "Interleukin-8 (CXCL8, Homo sapiens, UniProt P10145)", "test": "isothermal titration calorimetry", "conditions": "concentration not given, protein 10 µM, monomer", "endpoint": "binding stoichiometry", "value": 0.2}
{"Compound": "CC(=O)NCC(=O)N[C@@H](CC(=O)O)C(=O)N[C@@H](Cc1ccc(O)cc1)C(=O)N[C@@H](CO)C(=O)N[C@@H](Cc1c[nH]cn1)C(=O)N[C@H]1CSSC[C@@H](C(=O)N[C@H](C(=O)N[C@@H](Cc2ccc(O)cc2)C(=O)N2CCC[C@H]2C(=O)N[C@@H](CC(=O)O)C(=O)N2CCC[C@H]2C(=O)N[C@@H](CCC(=O)O)C(=O)NCC(=O)NCC(=O)NCC(N)=O)[C@@H](C)O)NC(=O)[C@H](CCCCN)NC(=O)[C@H](Cc2c[nH]c3ccccc23)NC(=O)[C@H](Cc2c[nH]c3ccccc23)NC(=O)[C@@H]2CCCN2C(=O)[C@H](Cc2ccc(O)cc2)NC(=O)[C@H](Cc2ccc(O)cc2)NC(=O)[C@H](CCCNC(=N)N)NC(=O)[C@H](CC(C)C)NC(=O)[C@@H]2CCCN2C(=O)[C@H](CO)NC1=O", "target": "Angiotensin-converting enzyme (Mus musculus, UniProt P09470)", "test": "enzyme activity, inhibitor", "test system": "mouse heart homogenate", "conditions": "4 h", "endpoint": "maximal inhibition", "value": "15 ± 2%"}
{"Compound": "Cc1cn(C2CC(O)C(COP(=O)(O)OP(=O)(O)C(F)(Cl)P(=O)(O)O)O2)c(=O)[nH]c1=O (mixture of isomers)", "target": "POLB", "test": "nucleotide incorporation rate, substrate, single-turnover kinetics", "test system": "single-nucleotide gapped DNA", "conditions": "37 °C, wild type, correct incorporation, with: dTTP opposite template A", "endpoint": "kpol", "value": "3.8 ± 0.3 s⁻¹"}
{"Compound": "COc1ccc(-c2cc(C(F)(F)F)nc(SCC(=O)N(C)c3ccccc3)n2)cc1", "target": "SCTR", "test": "efficacy cooperativity, allosteric modulator", "test system": "cells overexpressing SCTR", "conditions": "with: secretin(3-27)", "endpoint": "cooperativity factor beta", "value": 30}
{"Compound": "Nc1nc2c(ncn2[C@H]2C[C@H](O)[C@@H](COP(=O)(O)OP(=O)(O)C(Br)(Br)P(=O)(O)O)O2)c(=O)[nH]1", "target": "POLB", "test": "nucleotide incorporation rate, substrate, single-turnover kinetics", "test system": "single-nucleotide gapped DNA", "conditions": "37 °C, wild type, misincorporation, with: dGTP opposite template A", "endpoint": "kpol", "value": "0.0005 ± 0.0001 s⁻¹"}
{"Compound": "COc1ccc(-c2cc(C(F)(F)F)nc(NCc3ccccc3)n2)cc1OC", "target": "SCTR", "test": "cAMP accumulation, positive allosteric modulator", "test system": "CHO-K1 overexpressing SCTR", "conditions": "with: EC10-EC20 secretin peptide mix", "scale": "relative to: EC95 peptide mix", "endpoint": "Emax", "value": "76 ± 10%"}
{"Compound": "O=C(O)CCn1c2ccc(Br)cc2c2cc(Br)ccc21", "target": "Kcnk2 (Mus musculus, UniProt P97438)", "test": "ion current, two-electrode voltage clamp", "test system": "Xenopus oocytes", "endpoint": "Hill coefficient", "value": "2.2 ± 0.5"}
{"Compound": "CCC1(O)CCCN(C(=O)c2ccc(-c3ccc(F)c(C(N)=O)c3)cc2)C1 (stereo not shown)", "target": "DNA dC->dU-editing enzyme APOBEC-3A (Homo sapiens, UniProt P31941)", "test": "binding, 1H CPMG NMR", "endpoint": "signal attenuation", "value": "28.5 ± 3.8%"}
{"Compound": "CC(C)C[C@@H](CN[C@@H](Cc1ccc(Cl)cc1)C(N)=O)NC(=O)[C@H](Cc1c[nH]cn1)NC(=O)CNC(=O)[C@@H](NC(=O)[C@H](C)NC(=O)[C@H](Cc1c[nH]c2ccccc12)NC(=O)[C@H](CCC(N)=O)NC(=O)[C@H](N)Cc1ccccc1)C(C)C", "target": "Neuromedin-B receptor (NMBR, Homo sapiens, UniProt P28336)", "test": "IP release", "test system": "NCI-H1299", "conditions": "up to 10 µM", "endpoint": "activity class", "value": "inactive"}
{"Compound": "CNC(=O)c1ccc(N2CCN(Cc3ccc4nc(C)c(=O)[nH]c4c3F)CC2)c([18F])n1", "target": "Poly [ADP-ribose] polymerase 1 (Mus musculus, UniProt P11103)", "test": "in vitro autoradiography", "test system": "mice, whole brain sections", "conditions": "dose not given", "scale": "relative to: knockout over wild type", "endpoint": "reduction of binding", "value": "> 65%"}
{"Compound": "O=C(NCCC#Cc1cc(Nc2nccc(-c3ccn([C@H](CO)c4ccc(Cl)c(F)c4)c(=O)c3)n2)ccn1)OC1CC/C=C/CCC1 (stereo partly shown)", "target": "Mitogen-activated protein kinase 1 (MAPK1, Homo sapiens, UniProt P28482)", "test": "binding, SPR", "conditions": "25 °C", "endpoint": "dissociation half-life", "value": "4 min"}
{"Compound": "CC1(C)C(/C=C/C2=C(Oc3ccc(CCC(=O)N[C@@H](CSC4CC(=O)N(CCNC(=O)CN5CCN(CC(=O)O)CCN(CC(=O)O)CCN(CC(=O)O)CC5)C4=O)C(=O)NCCCC[C@@H]4NC(=O)[C@@H](Cc5ccc(O)cc5)NC(=O)[C@H](CC(=O)O)NC(=O)CNC(=O)[C@H](CCCNC(=N)N)NC4=O)cc3)C(=C/C=C3/N(CCC[N+](C)(C)C)c4ccc(S(=O)(=O)O)cc4C3(C)C)/CCC2)=[N+](CCC[N+](C)(C)C)c2ccc(S(=O)(=O)O)cc21 (stereo partly shown)", "target": "integrin αvβ3", "test": "dynamic optical imaging, Logan", "test system": "female athymic nude mouse, MDA-MB-435 xenograft", "conditions": "dose not given, 60 min, unit not given", "scale": "relative to: muscle", "endpoint": "binding potential", "value": "1.51 ± 0.113"}
{"note": "For quick reference, copied from above:"}
{"Compound": "Cc1cn(C2CC(O)C(COP(=O)(O)OP(=O)(O)C(F)(Cl)P(=O)(O)O)O2)c(=O)[nH]c1=O (mixture of isomers)", "target": "POLB", "test": "nucleotide incorporation rate, substrate, single-turnover kinetics", "test system": "single-nucleotide gapped DNA", "conditions": "37 °C, wild type, correct incorporation, with: dTTP opposite template A", "endpoint": "kpol", "value": "3.8 ± 0.3 s⁻¹"}
{"Compound": "COc1ccc(-c2cc(C(F)(F)F)nc(SCC(=O)N(C)c3ccccc3)n2)cc1", "target": "SCTR", "test": "efficacy cooperativity, allosteric modulator", "test system": "cells overexpressing SCTR", "conditions": "with: secretin(3-27)", "endpoint": "cooperativity factor beta", "value": 30}
